# Published values collected from several papers.
# Each numbered part is a random draw from the data of one study; scales do not carry over between parts. Positions count from the first letter of the parent shown.

# Block 1 — technique: protein binding microarray; molecule type: double-stranded DNA, one strand shown; matrix: in vitro; concentration: not given; reference: not given; reading: higher = stronger binding
# Target: Histone acetyltransferase KAT6A, both winged helices, GST fusion (KAT6A, Homo sapiens, UniProt Q92794, residues 1-181)
# Setting: 8-mer, flanks averaged, mean of 2 arrays, mostly near background
# Construct (chain): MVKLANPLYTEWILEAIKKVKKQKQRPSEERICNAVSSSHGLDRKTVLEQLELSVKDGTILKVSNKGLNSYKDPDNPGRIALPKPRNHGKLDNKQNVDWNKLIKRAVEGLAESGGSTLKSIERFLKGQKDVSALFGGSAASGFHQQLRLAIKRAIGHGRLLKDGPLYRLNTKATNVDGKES
Sequence,E-score
AACACGAA,0.00974
ACGAGTGC,-0.063
TCGAAGCA,-0.183
CAGTTACG,0.145
CGCCTAAC,0.143
GCAGTGGA,0.00539
GAAGCGTC,0.125
GATTTCGA,0.0934
AAAATCCC,-0.0073
CGTGAGGA,0.0928
AGTCCTAC,0.102
ACGAGAGC,-0.034
CTGATACC,-0.0319
CTGACTCA,-0.136
AGTCCCAT,-0.193
ATTTCTTG,-0.0332
ACGTTTCG,0.0522
ACGTGTGG,-0.123
ACAATAAC,-0.0682
AATGTGCG,0.107
CGCGCCAA,0.33
ATGTCCTG,-0.00986
GAGATATA,-0.0701
TCATTACA,0.044
GTATGCAA,-0.0957

# Block 2 — technique: DHFR PCA, deep sequencing; matrix: yeast; together with: (+)-ABA 0 µM; reference: wild-type fitted maximum; reading: higher = stronger binding
# Target: ABI1, truncated, D143A, DHFR fusion (Arabidopsis thaliana)
# Setting: methotrexate growth selection, single substitutions
# Starting sequence: PYL1, truncated, DHFR fusion (Arabidopsis thaliana); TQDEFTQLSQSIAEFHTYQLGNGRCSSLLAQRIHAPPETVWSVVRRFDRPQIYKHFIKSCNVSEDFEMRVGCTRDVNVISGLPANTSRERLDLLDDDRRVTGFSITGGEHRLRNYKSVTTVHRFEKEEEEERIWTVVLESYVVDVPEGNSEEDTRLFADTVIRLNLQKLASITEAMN
Change,relative binding score [%]
E89M,2.06
R45E,5.47
D3S,19.2
C72Q,35
P146E,3.93
P36G,1.26
R74W,0.538
N114M,-2.02
T154K,1.47
V118I,29.2
E14L,2.87
T39Q,10.3
S42M,-0.626
D92K,-3.22
E14I,-0.368
H34R,24.7

# Block 3 — technique: RNAcompete; molecule type: RNA; matrix: in vitro; concentration: 20 nM; setting: 7-mer, probes averaged, single round; reference: mean of 7-mers; reading: higher = stronger binding
# Target: PABPC1L2, full length, GST fusion (mouse, UniProt A0ABA7IW68)
# Construct (chain): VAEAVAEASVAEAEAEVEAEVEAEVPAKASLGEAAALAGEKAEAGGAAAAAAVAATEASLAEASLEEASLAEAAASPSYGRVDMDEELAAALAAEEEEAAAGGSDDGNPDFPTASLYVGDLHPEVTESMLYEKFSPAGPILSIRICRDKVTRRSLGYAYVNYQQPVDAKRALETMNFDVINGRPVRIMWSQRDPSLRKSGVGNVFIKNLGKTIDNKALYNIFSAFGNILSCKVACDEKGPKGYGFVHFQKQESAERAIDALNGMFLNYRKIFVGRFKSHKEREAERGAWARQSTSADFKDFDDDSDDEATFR
Sequence,7-mer Z-score
AGACAGC,-0.132
AUUACUU,-0.282
GCUGAGA,0.0787
AAAUCCU,0.265
GGCCACU,-0.13
UCGUACU,-0.211
UCGUCUC,-0.581
GGACCUU,-0.0138
UCCCGAC,-0.316
CUUGGAU,-0.11
UAGUAUA,-0.0573
UCUGACU,-0.291
CGGUUAC,-0.0536
GGAUCUA,-0.0446
GGAUACU,0.0515
GCAGACU,0.108
CCAUUUU,-0.188
GAACUCU,-0.28
GCCUUGA,-0.222
CCAAUGC,-0.235
ACGUAGA,-0.0138
GCCAUCC,-0.184
ACCGGCA,-0.148
UCGGGAC,0.216

# Block 4 — technique: RNA Bind-n-Seq; molecule type: RNA; matrix: in vitro; concentration: 200 nM; setting: whole 134-nt RNA, ends assumed; together with: 150 mM LiCl; reference: input library; reading: higher = stronger binding; all molecules: 7-deaza-guanosine replaces G
# Target: Fragile X messenger ribonucleoprotein 1, C-terminal low-complexity region (Fmr1, Mus musculus, UniProt P35922)
# All sequences stand within: GGGAGUUCUACAGUCCGACGAUC … UGGAAUUCUCGGGUGUCAAGG
Sequence,log2 enrichment
GUCCUGUGCUACACAUCGUAUGUACCGAAUCAAACCCCCCCAAACCCCCAAAUUUAAAAAAGUAUUAUGUUACGCCGUUCGGAUCUGCAC,1.2
UGUGCUACACAUCGUAUGUACCGAAUCGGGGCCCCCCCGGCCCCCCCGGGGCCCCCCCGGGGAAAGUAUUAUGUUACGCCGUUCGGAUCU,-0.453
UGGGAGGUGGAUUUUGUUUAUUUUUUUAGCUCAUUUCCAGGGGUGGGAAUUUUUUUUUAAUAUGUGUCAUGAACAAAGUUGUUUUUGAAA,-0.218
GUCCUGUGCUACACAUCGUAUGUACCGAAUCGGGGCCCCGGGGCCCCGGGCCCCGGGGAAAGUAUUAUGUUACGCCGUUCGGAUCUGCAC,-0.543
UCAAGUCCUGUGCUACACAUCGUAUGUACCGAAUCGGUGGUUUUUGGAAAAAGGAAAGUAUUAUGUUACGCCGUUCGGAUCUGCACUUCC,-0.647
AGUCCUGUGCUACACAUCGUAUGUACCGAAUCGUGUGUGUGUGUGUGUGUGUGUGUGAAAGUAUUAUGUUACGCCGUUCGGAUCUGCACU,-0.148
CCUCAAGUCCUGUGCUACACAUCGUAUGUACCGAAUCGGCGGCGGGGCGGGGAAAGUAUUAUGUUACGCCGUUCGGAUCUGCACUUCCAG,-0.053
UGGCCCUGGUGGCAUGCGGGGAGGAAGAGGUGGCCUCAUGGAUCGUGCUGGUCCCGGUGGAAUGUUCAGAGGUGGCCGUGGUGGAGACAG,-0.437
UCCUGUGCUACACAUCGUAUGUACCGAAUCGGGGUUUUUGGGGUUUUUGGUUUUUGGGGAAAGUAUUAUGUUACGCCGUUCGGAUCUGCA,-1.07
GUCCUGUGCUACACAUCGUAUGUACCGAAUCGGGGAAAAGGGAAAAGGGGAAAAGGGGAAAGUAUUAUGUUACGCCGUUCGGAUCUGCAC,0.862
CUCAAGUCCUGUGCUACACAUCGUAUGUACCGAAUCGGGUUGGUUGGGGUUGGGAAAGUAUUAUGUUACGCCGUUCGGAUCUGCACUUCC,-0.485

# Block 5 — target: CREB3L4, bZIP domain (human); technique: DHFR protein complementation; matrix: yeast; reference: wild-type JUN-FOS pair; reading: higher = stronger binding
# Setting: single substitutions, most at no-binding floor
# Starting sequence: JUN, bZIP domain (human); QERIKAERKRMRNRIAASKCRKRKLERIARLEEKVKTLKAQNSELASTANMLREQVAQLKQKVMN; partner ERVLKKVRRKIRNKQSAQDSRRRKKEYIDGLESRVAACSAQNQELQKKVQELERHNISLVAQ
Change,binding fitness
E33H,-1.45 natural log
L31E,-1.42 natural log
K39R,-1.27 natural log
N42D,-1.43 natural log
R30Q,-1.14 natural log
A29K,-1.39 natural log
L45F,-1.53 natural log
L52D,-1.58 natural log
A57P,-1.53 natural log
L52E,-1.59 natural log
R30T,-1.11 natural log
S47C,-1.48 natural log
Q41A,-1.42 natural log
V35L,-1.4 natural log
M51R,-1.35 natural log
S43W,-1.51 natural log

# Block 6 — target: CCND3, cyclin fold, Cln2 fusion (human); technique: yeast growth competition, sequencing; matrix: yeast; setting: weak parent motif; reference: not given; reading: higher = stronger binding
# Starting sequence: TICRR docking peptide (human); TKVRRNLFNQELL
Change,normalised enrichment score
R4A,0.109
K2A,0.265
F8L,0.762
T1A,0.17
R5K,0.333
L7A,0.135
E11A,0.295
F8A,0.032
L12A,0.0448
R5A L7A,-0.121

# Mixed results
Molecule,target,test,system,setting,scale,endpoint,value
"PhoQ, residues 284 288 289 292 302 303 AGGCYF","PhoP, residues 12 14 15 18 19 VHSCL (Escherichia coli, UniProt P23836)","Sort-seq, refers to: YFP reporter",E. coli,"PhoQ-PhoP variant library, together with: 10 µM Mg2+","reference: high Mg2+ state, higher = stronger signaling",fold induction,2.58

# Some of these lines once more (block 5):
Change,binding fitness
A57P,-1.53 natural log
V35L,-1.4 natural log
R30Q,-1.14 natural log
M51R,-1.35 natural log
E33H,-1.45 natural log
L52D,-1.58 natural log
A29K,-1.39 natural log
Q41A,-1.42 natural log
N42D,-1.43 natural log
S47C,-1.48 natural log
L31E,-1.42 natural log
L52E,-1.59 natural log
L45F,-1.53 natural log
S43W,-1.51 natural log
R30T,-1.11 natural log
